Measurements gathered from unrelated publications.
Numbered parts are unrelated; each lists some results of a single study.

Block 1 — technique: competition protein-binding microarray; molecule type: double-stranded DNA, one strand shown; sample: in vitro; concentration: 2 µM; together with: Cbf1 competitor, 0.05 µM; direction: higher = stronger binding; shared flanks, not repeated: … GTCTTGATTCGCTTGACGCTGCTG
Target: Phosphate system positive regulatory protein PHO4, full length, GST-tagged (PHO4, Saccharomyces cerevisiae, UniProt P07270, residues 1-312)
Setting: whole 60-bp probe, lowest competitor level
Construct (chain): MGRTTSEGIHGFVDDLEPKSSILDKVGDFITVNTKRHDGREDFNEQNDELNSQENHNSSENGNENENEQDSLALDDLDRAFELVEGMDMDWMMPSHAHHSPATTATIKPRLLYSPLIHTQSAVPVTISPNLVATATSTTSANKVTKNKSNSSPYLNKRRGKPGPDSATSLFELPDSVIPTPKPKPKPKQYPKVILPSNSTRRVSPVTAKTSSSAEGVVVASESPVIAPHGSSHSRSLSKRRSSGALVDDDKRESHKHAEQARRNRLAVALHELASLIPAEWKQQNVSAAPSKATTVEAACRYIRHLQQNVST
`CAAATGCCATGATTGCACGTGCAAAGTTTTGAGAAG` has a fluorescence intensity of 17300 a.u.
With `CGATGTATCTTCCGTCACCTGCACCACCACAATTGA` the fluorescence intensity was 5480 a.u.
For `AGAGCACTACAACAAGGCGTGGGTACTGCATAAAGA`, the fluorescence intensity was 8440 a.u.
`ACAATGGTGGGATGGCCCGTGGGTAAGTCGTGTAGT` gave a fluorescence intensity of 12700 a.u.
The fluorescence intensity of `TCCAAAACACAGGGGCACGTGCATCCTTGTGGCACT` is reported as 18800 a.u.
The fluorescence intensity of `ACTTATCTGTCGAATCTCGTGACGGCACCTCCGACA` is reported as 7610 a.u.
`CATACCCAACCTTGTCACCCAACTTAAGATATTTGT` gave a fluorescence intensity of 4000 a.u.
`AAACATCAAATCCATCACGTGCTTTTTAAAAAATAT` has a fluorescence intensity of 15200 a.u.
The fluorescence intensity of `CCCGCCCCGCTCGGTCACGTGAGCCTGGCTCTCACC` is reported as 9310 a.u.
`CATACCCAACCTTTTCACGTGGCGTAAGATATTTGT` gave a fluorescence intensity of 14500 a.u.
The fluorescence intensity of `CTCTTAGTTTGGCATCTCATGACGCGGCACACATTC` is reported as 5780 a.u.
The fluorescence intensity of `CGGGGTTAAGTTTTTCACGTGAGCTGCTTGCAGCAG` is reported as 11300 a.u.
For `TGGACAGCGCTTCCCAGCGTGCTTTACATAATGCTT`, the fluorescence intensity was 7180 a.u.
For `AGCTTTGAAAACTCCCATGTGGCGCGCCCGTCTTAA`, the fluorescence intensity was 9100 a.u.
The fluorescence intensity of `AACTCTCGCAGCCGTCACGTGCAAATTGATACAAGT` is reported as 15600 a.u.
With `CATACCCAACCTTGACCAGTGGGTGAAGATATTTGT` the fluorescence intensity was 3550 a.u.
For `TTCTTGGAAAGAACCGTCGTGGGTATAACCAGACAA`, the fluorescence intensity was 6340 a.u.
For `CATACCCAACCTTGGAAGGTGGGTGAAGATATTTGT`, the fluorescence intensity was 4930 a.u.
The fluorescence intensity of `GACATACAGGAGTGCCACATGCGAAAGCGGAGTGGG` is reported as 10100 a.u.
With `TACCAGAATTGTGAGAACATGACAAAACCAACTACG` the fluorescence intensity was 5690 a.u.
With `CGTCCTAGTGATTGCTCGGTGGGTGCCATGAGGAAG` the fluorescence intensity was 7820 a.u.

Block 2 — technique: protein-binding microarray; molecule type: double-stranded DNA, one strand shown; sample: in vitro; concentration: 940 nM top; setting: 60-bp whole probe; together with: salmon DNA 0.4 mg/ml; baseline: random background probes; direction: higher = stronger binding; shared flanks, not repeated: GCCTAGCAC … GTCTTGATTCGCTTGACGCTGCTG
Target: Interferon regulatory factor 5, full length, phosphomimetic (IRF5, Homo sapiens, UniProt Q13568-2, residues 1-514, S451D/S453D/S456D/S462D)
`TTTGGTTTCGACACTGGGTTAGTGCTA` — result for “fitted relative affinity”: 11.1 z-score.
`CCTATCTTATGATATATATAAGTGCTA` — result for “fitted relative affinity”: 0.829 z-score.
`GTAGGTTTCCTTTTCCTTTAGTGCTAG` — result for “fitted relative affinity”: 2.12 z-score.
For `GACGATATCGGAACTGGAGACGTGCTA`, “fitted relative affinity” read -0.0205 z-score.
`GACGGTATCGGGTTTCGGTACGTGCTA` — result for “fitted relative affinity”: 7.22 z-score.
For `GACGGTATCGAGACTGGGGACGTGCTA`, “fitted relative affinity” read 4.33 z-score.
`TTAGGTTTAGACACTGGGTTAGTGCTA` — result for “fitted relative affinity”: -0.406 z-score.
`TTAGGTCTTGGACTGGGTTAGTGCTAG` — result for “fitted relative affinity”: -0.417 z-score.
`TTAGATATCAGTTGCGATTAGTGCTAG`: “fitted relative affinity” 0.973 z-score.
Under “fitted relative affinity”, `GTCGGTTTCCTTTTCCTGACGTGCTAG` is recorded as 4.35 z-score.
`GACGGTCTCGGGCTGGGGACGTGCTAG` — result for “fitted relative affinity”: 1.06 z-score.
`CTCGGGACAGGCACTCTACGGTGCTAG`: “fitted relative affinity” -0.467 z-score.
For `GACGGTCTCCTTCTCCTGATGTGCTAG`, “fitted relative affinity” read 0.48 z-score.
`TTAGGTATCCTTCTCCGTTAGTGCTAG` — result for “fitted relative affinity”: 0.715 z-score.
`GACGGACTTGACTTTCGGGACGTGCTA` — result for “fitted relative affinity”: 0.473 z-score.
Under “fitted relative affinity”, `TTAGGTTTCTTTCTCCTTTAGTGCTAG` is recorded as 3.6 z-score.
For `GCCTTTTATTTGAAAGAAATGTGCTAG`, “fitted relative affinity” read 0.236 z-score.
`TTAGGTCTCCTGCTGCTTTAGTGCTAG` — result for “fitted relative affinity”: -0.275 z-score.
`GACGTTATCGGACTGGGGACGTGCTAG`: “fitted relative affinity” -0.292 z-score.
For `GTAGGTTTCGACTTTCGGTTAGTGCTA`, “fitted relative affinity” read 8.85 z-score.
`GACGGTCTCGGCCTGGGGACGTGCTAG` — result for “fitted relative affinity”: 1.41 z-score.

Block 3 — technique: RNA Bind-n-Seq; molecule type: RNA; sample: in vitro; concentration: 100 nM; baseline: input RNA pool; direction: higher = stronger binding
Target: RING finger protein unkempt homolog, zinc fingers 1-6, SBP tag (UNK, Homo sapiens, UniProt Q9C0B0, residues 30-357)
Sequence of UniProt Q9C0B0 (30-357, looked up): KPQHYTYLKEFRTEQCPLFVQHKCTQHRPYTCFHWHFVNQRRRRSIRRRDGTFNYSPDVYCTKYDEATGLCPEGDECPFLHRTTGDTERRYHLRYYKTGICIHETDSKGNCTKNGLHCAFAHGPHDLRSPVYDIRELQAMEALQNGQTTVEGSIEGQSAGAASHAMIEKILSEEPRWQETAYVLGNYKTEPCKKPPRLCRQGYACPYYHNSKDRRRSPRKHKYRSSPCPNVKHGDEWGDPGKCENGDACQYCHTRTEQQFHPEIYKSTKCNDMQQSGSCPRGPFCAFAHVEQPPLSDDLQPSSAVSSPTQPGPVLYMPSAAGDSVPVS
Setting: RNA with constant flanks, vertebrate orthologous sites, ends assumed
Shared flanks, not repeated: GGGAGUUCUACAGUCCGACGAUC … CAACAGAGGAUUGAGCAUCA
For `CUCUCUGAGCGAUAGUAUUCCGUCUGUAGCAGAUUCGCACUCCAGCCAUUUCUCUGAGUUCAGCUGCUCAGAUAUGGAAAGUAUGAAAACUUCCUGUAGCCAUGGUUCCAGCGACUAUCA`, the bound/input enrichment was 0.217 ratio.
The bound/input enrichment of `GACAGGGCCCAGGCCCCCGCCACUCAGAGUGGCCCACUGGCCACUUCAGCCAGGGCAUUUUGGCUCCGUUUUUUAUUUUAACAGUGCCCUUAUUAUCCGUGUGUAUAUGCCUGCGAUUUG` is reported as 0.665 ratio.
The bound/input enrichment of `GUGAGGGUCUACUGACCACUCACUGUUCUGUCUGGUAUCUGUAAACACUCUUUUUGUUCUUAGUCUUUUUCUUGUAUAAUUGAUGUUCUUUAAAAUUGUUAAUGUAUAACAGGGCUUAUG` is reported as 2.99 ratio.
`AUCCUUUCGUGCUGUCCCCAGCCAGGGCCGAGGACCAGACAUUUCACCGAGGACCUGCAUUUCAAACAAUUUUUUAAAUUGUUGUACAAGAAGAGAUGUGCCAGAAACAGCAUCUCCAAG` gave a bound/input enrichment of 0.3 ratio.
`GGUUUUUAAAGCUAUUCUUUCACCUUUCCAGUAAAUAAUGGACGAUCUUUUUUAAAAAAAUGUUGUUUUAAUAAUGUGGGUAGACUAUAAAUGUAUUUGUUGAAUUUAUUCAUUUUUUAA` has a bound/input enrichment of 0.532 ratio.
The bound/input enrichment of `AGUAGUUUUAAGCUUGUUUGCACAGUUCUUUUUUUCCAUUGGAAAUGGAAUUCAUUGCCUUAGGUCUUUUAAAAUAGUGUAUUAUUGUUGGGGCUGGCUCUAUGCUUGAAAACAAGUUUA` is reported as 2.9 ratio.
`AAAUUUAUUUCAUGCCCUGGACUCCCUACCGCACUGAUACUUUGAUAGAGUAUGCUUCUUUAGAAGAUUUCCAAAACAGCCGCCAAACAACAACAUACAAACUUCCAAAUCGAGUAGAUG` has a bound/input enrichment of 1.39 ratio.
`UUGCUUUCAGGUUGUGGCUAGUCACCCUCCUUCCCUUCCUCCACUUUAAGUUCUUUCCUUUGCACCCUUCAUAUCCCCUCUCUCAACUCAGACAGGUGUGGAGUAUUUUACUCAGUCAUU` gave a bound/input enrichment of 0.846 ratio.
The bound/input enrichment of `GGGACGCUUUGAUGUAAAAAUUGAAGUUAAAAGCUGAUCACAAGCACAGAUCUUUCCCACUAGCCAUUUAAAAUGUUAAAAAAAAAAAAAAAAGAUAAACCUACUAGUCUUGAACAAACU` is reported as 3.21 ratio.
`CAAUUCAAUGCUGGAGGGUUCAGAACUCAAAAAGGUCCGGUCCAACUCUAGAAUUUACCAUAGAUAUUUUUUACUGGACGCCGACAUGCAGAGCCUGAGGUGGGAGCCGUCCAAGAAAGA` gave a bound/input enrichment of 1.07 ratio.
`ACCAAGGGACACCCAGCGGGGCGAGGAGCCACCCCAGGCAGCGAAGGCGGGGCAGGAUCGCUGCAGCCCGGGCUGCACCCACUGCUCCGUGCACCCCUCUGCUGCACAACCAGCUGCAUU` gave a bound/input enrichment of 0.595 ratio.

Block 4 — technique: RNA Bind-n-Seq; molecule type: RNA; sample: in vitro; concentration: 200 nM; setting: whole 134-nt RNA, ends assumed; together with: 150 mM KCl; baseline: input library; direction: higher = stronger binding
Target: Fragile X messenger ribonucleoprotein 1, C-terminal low-complexity region (Fmr1, Mus musculus, UniProt P35922)
Shared flanks, not repeated: GGGAGUUCUACAGUCCGACGAUC … UGGAAUUCUCGGGUGUCAAGG
`GUCCUGUGCUACACAUCGUAUGUACCGAAUCGGGAAAGGGAAAAAAAGGGAAAAAGGGAAAGUAUUAUGUUACGCCGUUCGGAUCUGCAC` has a log2 enrichment of -0.409.
`CUGUGCUACACAUCGUAUGUACCGAAUCGGGGAAAAAAAGGGGAAAGGGGAAAAAAAGGGGAAAGUAUUAUGUUACGCCGUUCGGAUCUG` gave a log2 enrichment of -0.444.
`UGGGAGGUGGAUUUUGUUUAUUUUUUUAGCUAAUUUCCAGGGGUGGGAAUUUUUUUUUAAUAUGUGUCAUGAAUAAAGUUGUUUUUGAAA` has a log2 enrichment of 0.086.
`UAACUUUAGAGGAGGAUAUGAUGGAUAUGGCAGUGGACGUGGAUUUGGGGAUGGCUAUAAUGGGUAUGGAGGAGGACCUGGAGGUGGCAA` gave a log2 enrichment of 0.498.
The log2 enrichment of `UAACUUUAGAGGAGGAUCUGAUGGAUAUGGCAGUGGACGUGGAUUUGGGGAUGUCUAUAAUGGGUAUGGAGGAGGACCUGGAGGUGGCAA` is reported as 0.329.
`ACCAUGCAGGUGGGCAUCUUUGGGAAGUGGGGCAAGGGGGGGGUAGGGAGGGGGGUAACACUUUGGGAACAGGUGGUCCCAGGUCGUUUC` has a log2 enrichment of 0.789.
With `UCCCCAGGGCCUGGCCUACUCAAUCUCUCCCACCUCAUCCUCUGGCAUGGACGCAGUCAGGGAGUCUGCUCCAAGCAGACACUGGUGGUC` the log2 enrichment was -1.09.
With `GUCCUGUGCUACACAUCGUAUGUACCGAAUCGGGGAAAAAAAGGGGUGGGGUUUGGGGAAAGUAUUAUGUUACGCCGUUCGGAUCUGCAC` the log2 enrichment was 0.494.
For `GCAGGAAGUAAAAACAAAUGGAAAUGCUUCGGAUAGUGGCAGGGGUGGGGGUUGCUAAGGAAAGGCUGGGAUGGGAGUGGGUAAAGAGUU`, the log2 enrichment was 0.325.
`UUCCUCAAGUCCUGUGCUACACAUCGUAUGUACCGAAUCGGAGGGAGGAGGAAAGUAUUAUGUUACGCCGUUCGGAUCUGCACUUCCAGC` has a log2 enrichment of -0.596.
With `CUCAAGUCCUGUGCUACACAUCGUAUGUACCGAAUCGGAAAAAGGUGGUUUGGAAAGUAUUAUGUUACGCCGUUCGGAUCUGCACUUCCA` the log2 enrichment was -0.454.
For `CAAGUCCUGUGCUACACAUCGUAUGUACCGAAUCGGGAAAAGGAAAAGGAAAAGGGAAAGUAUUAUGUUACGCCGUUCGGAUCUGCACUU`, the log2 enrichment was -0.766.
`UCAAGUCCUGUGCUACACAUCGUAUGUACCGAAUCGGGUUUGGGUUUGGUUUGGAAAGUAUUAUGUUACGCCGUUCGGAUCUGCACUUCC` has a log2 enrichment of -0.245.
`UGUGCUACACAUCGUAUGUACCGAAUCGGGGUUUUUUUGGGUUUUUUUGGGGUUUUUUUGGGAAAGUAUUAUGUUACGCCGUUCGGAUCU` has a log2 enrichment of 0.0141.

A few entries again (block 1):
The fluorescence intensity of `TCCAAAACACAGGGGCACGTGCATCCTTGTGGCACT` is reported as 18800 a.u.
`CAAATGCCATGATTGCACGTGCAAAGTTTTGAGAAG` has a fluorescence intensity of 17300 a.u.
`CATACCCAACCTTTTCACGTGGCGTAAGATATTTGT` gave a fluorescence intensity of 14500 a.u.
The fluorescence intensity of `ACTTATCTGTCGAATCTCGTGACGGCACCTCCGACA` is reported as 7610 a.u.
